{"data": "Measurements from different studies", "note": "A part holds a random share of what one study measured. Positions count from the first letter of the parent shown.", "sequence of UniProt Q12851 (whole entry, looked up)": "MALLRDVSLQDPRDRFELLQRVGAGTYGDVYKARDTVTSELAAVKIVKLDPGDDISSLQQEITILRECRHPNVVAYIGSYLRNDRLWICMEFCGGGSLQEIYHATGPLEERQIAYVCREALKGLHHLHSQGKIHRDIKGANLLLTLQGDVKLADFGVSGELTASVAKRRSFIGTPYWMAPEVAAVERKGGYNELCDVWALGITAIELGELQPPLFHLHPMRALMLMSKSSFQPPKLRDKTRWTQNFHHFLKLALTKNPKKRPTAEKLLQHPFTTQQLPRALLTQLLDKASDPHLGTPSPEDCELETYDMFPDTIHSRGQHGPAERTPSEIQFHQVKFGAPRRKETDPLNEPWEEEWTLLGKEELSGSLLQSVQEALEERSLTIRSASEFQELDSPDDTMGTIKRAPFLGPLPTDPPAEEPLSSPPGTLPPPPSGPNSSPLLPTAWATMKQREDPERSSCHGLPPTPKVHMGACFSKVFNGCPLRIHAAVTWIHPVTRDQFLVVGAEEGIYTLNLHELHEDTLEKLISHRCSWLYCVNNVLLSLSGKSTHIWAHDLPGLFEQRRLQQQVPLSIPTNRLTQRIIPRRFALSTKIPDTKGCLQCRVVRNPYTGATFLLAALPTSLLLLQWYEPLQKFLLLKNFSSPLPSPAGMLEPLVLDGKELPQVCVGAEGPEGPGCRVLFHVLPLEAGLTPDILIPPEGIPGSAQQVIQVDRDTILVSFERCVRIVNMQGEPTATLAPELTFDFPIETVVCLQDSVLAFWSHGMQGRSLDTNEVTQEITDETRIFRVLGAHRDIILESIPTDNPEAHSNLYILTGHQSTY", "sequence of UniProt Q9H4A3 (whole entry, looked up)": "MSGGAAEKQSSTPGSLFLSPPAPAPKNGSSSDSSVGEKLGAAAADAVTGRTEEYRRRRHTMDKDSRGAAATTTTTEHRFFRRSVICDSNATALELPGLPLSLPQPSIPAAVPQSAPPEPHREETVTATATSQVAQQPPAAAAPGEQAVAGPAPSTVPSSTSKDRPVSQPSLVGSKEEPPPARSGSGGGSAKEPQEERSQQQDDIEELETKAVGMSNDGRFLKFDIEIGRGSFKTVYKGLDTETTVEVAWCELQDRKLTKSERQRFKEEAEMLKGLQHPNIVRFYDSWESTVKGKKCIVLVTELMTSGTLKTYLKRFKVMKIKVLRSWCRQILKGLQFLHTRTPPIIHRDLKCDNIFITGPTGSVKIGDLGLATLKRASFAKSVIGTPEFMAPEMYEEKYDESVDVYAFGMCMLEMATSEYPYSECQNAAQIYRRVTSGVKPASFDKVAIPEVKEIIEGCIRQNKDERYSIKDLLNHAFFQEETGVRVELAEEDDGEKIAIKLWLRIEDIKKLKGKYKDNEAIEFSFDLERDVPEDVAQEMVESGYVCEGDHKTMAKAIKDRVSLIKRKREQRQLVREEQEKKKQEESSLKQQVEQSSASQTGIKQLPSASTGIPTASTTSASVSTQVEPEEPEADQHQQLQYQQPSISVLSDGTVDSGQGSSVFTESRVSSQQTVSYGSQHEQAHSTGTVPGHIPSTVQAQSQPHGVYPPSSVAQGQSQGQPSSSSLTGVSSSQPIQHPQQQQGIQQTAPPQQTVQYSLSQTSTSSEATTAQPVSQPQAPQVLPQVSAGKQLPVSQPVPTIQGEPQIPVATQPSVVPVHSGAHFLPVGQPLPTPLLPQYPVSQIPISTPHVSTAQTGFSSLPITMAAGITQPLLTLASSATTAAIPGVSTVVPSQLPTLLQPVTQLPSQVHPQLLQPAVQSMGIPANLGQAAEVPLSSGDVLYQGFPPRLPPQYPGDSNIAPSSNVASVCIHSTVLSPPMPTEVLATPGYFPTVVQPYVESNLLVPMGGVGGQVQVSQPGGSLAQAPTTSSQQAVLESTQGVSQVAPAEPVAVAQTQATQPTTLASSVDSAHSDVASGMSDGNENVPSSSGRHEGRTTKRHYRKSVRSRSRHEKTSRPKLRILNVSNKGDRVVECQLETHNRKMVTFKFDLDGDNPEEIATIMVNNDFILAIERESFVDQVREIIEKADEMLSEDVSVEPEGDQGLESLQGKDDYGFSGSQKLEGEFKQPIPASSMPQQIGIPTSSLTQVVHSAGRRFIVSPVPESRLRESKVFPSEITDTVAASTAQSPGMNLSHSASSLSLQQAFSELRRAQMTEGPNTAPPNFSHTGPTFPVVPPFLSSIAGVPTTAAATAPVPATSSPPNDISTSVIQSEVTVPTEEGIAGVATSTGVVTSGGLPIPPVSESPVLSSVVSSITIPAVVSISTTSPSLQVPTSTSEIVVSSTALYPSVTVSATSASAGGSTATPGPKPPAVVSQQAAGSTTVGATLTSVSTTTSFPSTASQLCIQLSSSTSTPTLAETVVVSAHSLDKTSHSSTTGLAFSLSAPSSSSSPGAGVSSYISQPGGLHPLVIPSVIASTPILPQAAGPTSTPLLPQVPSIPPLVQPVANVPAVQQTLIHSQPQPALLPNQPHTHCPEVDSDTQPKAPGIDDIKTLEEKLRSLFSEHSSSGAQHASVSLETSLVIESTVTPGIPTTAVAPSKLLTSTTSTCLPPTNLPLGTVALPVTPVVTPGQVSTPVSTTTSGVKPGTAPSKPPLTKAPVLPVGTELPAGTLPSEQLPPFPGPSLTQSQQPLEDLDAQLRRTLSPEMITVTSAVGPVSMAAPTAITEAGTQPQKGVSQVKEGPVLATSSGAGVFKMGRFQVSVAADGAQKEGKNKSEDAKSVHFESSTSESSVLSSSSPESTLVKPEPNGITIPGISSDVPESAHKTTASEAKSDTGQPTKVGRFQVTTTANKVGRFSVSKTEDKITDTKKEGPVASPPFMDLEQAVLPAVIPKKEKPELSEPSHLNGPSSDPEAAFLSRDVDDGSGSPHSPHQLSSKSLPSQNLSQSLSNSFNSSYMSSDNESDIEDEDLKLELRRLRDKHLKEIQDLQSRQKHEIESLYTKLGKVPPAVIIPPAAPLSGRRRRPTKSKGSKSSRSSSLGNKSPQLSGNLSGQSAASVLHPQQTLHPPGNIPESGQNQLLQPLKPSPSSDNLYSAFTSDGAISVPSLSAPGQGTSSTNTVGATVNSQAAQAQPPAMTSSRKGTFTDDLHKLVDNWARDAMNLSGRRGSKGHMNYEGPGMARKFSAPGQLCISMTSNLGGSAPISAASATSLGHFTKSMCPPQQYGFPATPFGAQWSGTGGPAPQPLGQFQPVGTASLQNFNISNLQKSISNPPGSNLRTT", "sequence of UniProt Q9P0L2 (whole entry, looked up)": "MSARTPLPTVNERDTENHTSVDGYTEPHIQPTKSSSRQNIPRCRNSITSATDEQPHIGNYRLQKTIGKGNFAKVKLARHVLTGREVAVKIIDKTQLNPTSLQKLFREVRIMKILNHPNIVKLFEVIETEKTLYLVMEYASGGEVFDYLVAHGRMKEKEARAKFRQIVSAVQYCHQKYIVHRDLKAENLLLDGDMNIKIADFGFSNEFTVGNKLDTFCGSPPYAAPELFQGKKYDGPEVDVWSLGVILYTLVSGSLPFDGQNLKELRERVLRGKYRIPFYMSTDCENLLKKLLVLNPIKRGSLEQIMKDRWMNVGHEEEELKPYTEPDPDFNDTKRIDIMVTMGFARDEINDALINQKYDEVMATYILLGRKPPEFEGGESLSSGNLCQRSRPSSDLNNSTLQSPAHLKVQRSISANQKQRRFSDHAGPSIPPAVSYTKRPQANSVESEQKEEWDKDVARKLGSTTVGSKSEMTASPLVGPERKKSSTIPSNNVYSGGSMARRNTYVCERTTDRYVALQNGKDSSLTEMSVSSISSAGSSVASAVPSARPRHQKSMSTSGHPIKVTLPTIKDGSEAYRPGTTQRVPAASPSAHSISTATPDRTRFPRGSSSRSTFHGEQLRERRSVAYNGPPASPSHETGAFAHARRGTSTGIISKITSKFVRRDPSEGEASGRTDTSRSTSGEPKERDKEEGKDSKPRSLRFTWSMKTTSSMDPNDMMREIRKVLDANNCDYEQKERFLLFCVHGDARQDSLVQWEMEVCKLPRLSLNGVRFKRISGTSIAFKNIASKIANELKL", "sequence of UniProt Q9NWZ3 (whole entry, looked up)": "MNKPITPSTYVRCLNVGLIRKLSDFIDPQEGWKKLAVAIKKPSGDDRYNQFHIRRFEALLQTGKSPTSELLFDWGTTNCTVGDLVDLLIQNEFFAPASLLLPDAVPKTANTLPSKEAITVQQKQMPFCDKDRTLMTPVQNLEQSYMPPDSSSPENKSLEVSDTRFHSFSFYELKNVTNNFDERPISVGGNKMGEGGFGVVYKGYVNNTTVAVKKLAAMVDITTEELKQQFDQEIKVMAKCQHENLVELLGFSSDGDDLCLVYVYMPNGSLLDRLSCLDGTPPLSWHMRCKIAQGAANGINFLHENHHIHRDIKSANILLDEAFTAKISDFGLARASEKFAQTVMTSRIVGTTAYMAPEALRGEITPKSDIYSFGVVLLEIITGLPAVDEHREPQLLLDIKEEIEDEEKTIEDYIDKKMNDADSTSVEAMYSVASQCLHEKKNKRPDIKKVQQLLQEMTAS"}
{"data": "Block 1", "target": "CEP164, C-terminal peptide (human)", "method": "DHFR complementation, deep sequencing", "matrix": "yeast", "setting": "single substitutions, model-inferred values", "reference": "wild type", "reading": "higher = weaker binding", "starting sequence": "PDZK1, PDZ domain 2 (human); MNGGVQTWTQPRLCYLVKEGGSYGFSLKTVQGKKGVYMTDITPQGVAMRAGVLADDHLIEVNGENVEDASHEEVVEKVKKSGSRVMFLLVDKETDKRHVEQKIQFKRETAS; partner HNRVKVYRF"}
{"Change": "V36S", "binding free energy change [kcal/mol]": 0.0355}
{"Change": "K79Y", "binding free energy change [kcal/mol]": 0.642}
{"Change": "A50F", "binding free energy change [kcal/mol]": 0.637}
{"Change": "Y15D", "binding free energy change [kcal/mol]": 0.134}
{"Change": "T7S", "binding free energy change [kcal/mol]": -0.0838}
{"Change": "L58A", "binding free energy change [kcal/mol]": 0.272}
{"Change": "G32T", "binding free energy change [kcal/mol]": 0.571}
{"Change": "T39R", "binding free energy change [kcal/mol]": 1.53}
{"data": "Block 2", "target": "Interferon regulatory factor 7, full length, phosphomimetic (IRF7, Homo sapiens, UniProt Q92985, residues 1-503, S471D/S472D/S475D/S476D/S477D/S483D/S484D/S487D)", "method": "protein-binding microarray", "form": "double-stranded DNA, one strand shown", "matrix": "in vitro", "concentration": "2200 nM top", "setting": "60-bp whole probe", "together with": "salmon DNA 0.4 mg/ml", "reference": "random background probes", "reading": "higher = stronger binding", "all sequences stand within": "GCCTAGCAC … GTCTTGATTCGCTTGACGCTGCTG", "sequence of UniProt Q92985 (whole entry, unmodified, looked up)": "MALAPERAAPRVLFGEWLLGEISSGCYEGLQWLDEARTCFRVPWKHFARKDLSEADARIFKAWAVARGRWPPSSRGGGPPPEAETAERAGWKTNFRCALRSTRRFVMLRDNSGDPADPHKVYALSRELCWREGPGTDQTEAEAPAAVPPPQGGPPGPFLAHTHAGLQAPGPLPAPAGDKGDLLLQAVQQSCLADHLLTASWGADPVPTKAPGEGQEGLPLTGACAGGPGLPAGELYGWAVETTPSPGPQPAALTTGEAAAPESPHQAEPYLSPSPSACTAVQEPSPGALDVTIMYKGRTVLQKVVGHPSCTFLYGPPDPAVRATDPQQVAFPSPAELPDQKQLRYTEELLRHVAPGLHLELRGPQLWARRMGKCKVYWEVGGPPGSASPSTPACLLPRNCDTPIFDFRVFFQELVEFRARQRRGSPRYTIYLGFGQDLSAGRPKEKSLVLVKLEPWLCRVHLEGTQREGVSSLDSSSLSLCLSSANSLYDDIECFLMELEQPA"}
{"Sequence": "TCATGCCTATTTTTCACACTGTGCTAG", "fitted relative affinity": "1.56 z-score"}
{"Sequence": "TTAGGTCTTCTTCTCCTTTAGTGCTAG", "fitted relative affinity": "1.02 z-score"}
{"Sequence": "GTAGGACTGGGTCTCGGTTAGTGCTAG", "fitted relative affinity": "-0.372 z-score"}
{"Sequence": "GACGGACTGGGTCTCGGTACGTGCTAG", "fitted relative affinity": "-0.625 z-score"}
{"Sequence": "ATAGGACTGCTTTTCCTTTAGTGCTAG", "fitted relative affinity": "1.78 z-score"}
{"Sequence": "TTAAGTATCGACTATCGGTTAGTGCTA", "fitted relative affinity": "0.46 z-score"}
{"Sequence": "TAGATCGTCCCTTTGAGAGGGTGCTAG", "fitted relative affinity": "-0.044 z-score"}
{"Sequence": "GTAAGTTTCACTTTCCAAAGGTGCTAG", "fitted relative affinity": "8.32 z-score"}
{"data": "Block 3", "Structure (SMILES)": "N#CC1(c2ccccn2)CCN(Cc2cc(C(=O)N3CCCC3)c(=O)n3ccccc23)CC1", "read-out": "cell-free assay", "method": "competition with immobilised ligand", "concentration": "1 µM"}
{"target": "RIOK1 (Homo sapiens, UniProt Q9BRS2)", "remaining binding": "95%"}
{"target": "CAMK2G (Homo sapiens, UniProt Q13555)", "remaining binding": "100%"}
{"target": "EIF2AK1 (Homo sapiens, UniProt Q9BQI3)", "remaining binding": "83%"}
{"target": "DYRK2 (Homo sapiens, UniProt Q92630)", "remaining binding": "100%"}
{"target": "PRKAA1 (Homo sapiens, UniProt Q13131)", "remaining binding": "100%"}
{"target": "WNK1 (Homo sapiens, UniProt Q9H4A3)", "remaining binding": "100%"}
{"target": "MAK (Homo sapiens, UniProt P20794)", "remaining binding": "93%"}
{"target": "ULK2 (Homo sapiens, UniProt Q8IYT8)", "remaining binding": "92%"}
{"target": "MUSK (Homo sapiens, UniProt O15146)", "remaining binding": "90%"}
{"target": "CDKL3 (Homo sapiens, UniProt Q8IVW4)", "remaining binding": "78%"}
{"target": "Tyrosine-protein kinase ABL1, phosphorylated (ABL1, Homo sapiens, UniProt P00519, H396P)", "remaining binding": "100%"}
{"target": "MARK1 (Homo sapiens, UniProt Q9P0L2)", "remaining binding": "100%"}
{"target": "eIF-2-alpha kinase GCN2, C-terminal kinase domain (EIF2AK4, Homo sapiens, UniProt Q9P2K8, S808G)", "remaining binding": "78%"}
{"data": "Block 4", "SMILES": "Cc1nc(Nc2ncc(C(=O)Nc3c(C)cccc3Cl)s2)cc(N2CCN(CCO)CC2)n1", "read-out": "enzyme activity", "action": "inhibitor", "concentration": "0.5 µM", "reference": "control"}
{"target": "WNK2 (Homo sapiens, UniProt Q9Y3S1)", "remaining activity": "83.9%"}
{"target": "MAP4K2 (Homo sapiens, UniProt Q12851)", "remaining activity": "79.4%"}
{"target": "KIT (Homo sapiens, UniProt P10721)", "remaining activity": "3.27%"}
{"target": "MAPK13 (Homo sapiens, UniProt O15264)", "remaining activity": "99.3%"}
{"target": "EPHA5 (Homo sapiens, UniProt P54756)", "remaining activity": "0.244%"}
{"target": "MKNK2 (Homo sapiens, UniProt Q9HBH9)", "remaining activity": "100%"}
{"target": "NEK4 (Homo sapiens, UniProt P51957)", "remaining activity": "90.7%"}
{"target": "STK38 (Homo sapiens, UniProt Q15208)", "remaining activity": "101%"}
{"target": "PRKCD (Homo sapiens, UniProt Q05655)", "remaining activity": "99.6%"}
{"target": "IRAK4 (Homo sapiens, UniProt Q9NWZ3)", "remaining activity": "88.5%"}
{"target": "PLK2 (Homo sapiens, UniProt Q9NYY3)", "remaining activity": "98%"}
{"note": "Repeated from above (block 1):"}
{"Change": "K79Y", "binding free energy change [kcal/mol]": 0.642}
{"Change": "A50F", "binding free energy change [kcal/mol]": 0.637}
{"Change": "Y15D", "binding free energy change [kcal/mol]": 0.134}
{"Change": "T7S", "binding free energy change [kcal/mol]": -0.0838}
{"Change": "L58A", "binding free energy change [kcal/mol]": 0.272}
